Measurements pooled from the literature.
Parts stem from different laboratories: compare values within a part only. Changes are numbered by the printed parent chain. pIC50: −log10 of the molar value.

Series 1
Target: tungstate, free oxyanion
Method: microfluidic competitive inhibition
Sample: in vitro, cell-free expressed
Tested at: not given
Notes: derived from inhibition constants, unchanged parent 2230 nM
Reading: lower = stronger binding
Measurement: oxyanion analog dissociation constant
Starting sequence: PafA, mature enzyme, eGFP fusion (Elizabethkingia meningoseptica, UniProt Q9KJX5); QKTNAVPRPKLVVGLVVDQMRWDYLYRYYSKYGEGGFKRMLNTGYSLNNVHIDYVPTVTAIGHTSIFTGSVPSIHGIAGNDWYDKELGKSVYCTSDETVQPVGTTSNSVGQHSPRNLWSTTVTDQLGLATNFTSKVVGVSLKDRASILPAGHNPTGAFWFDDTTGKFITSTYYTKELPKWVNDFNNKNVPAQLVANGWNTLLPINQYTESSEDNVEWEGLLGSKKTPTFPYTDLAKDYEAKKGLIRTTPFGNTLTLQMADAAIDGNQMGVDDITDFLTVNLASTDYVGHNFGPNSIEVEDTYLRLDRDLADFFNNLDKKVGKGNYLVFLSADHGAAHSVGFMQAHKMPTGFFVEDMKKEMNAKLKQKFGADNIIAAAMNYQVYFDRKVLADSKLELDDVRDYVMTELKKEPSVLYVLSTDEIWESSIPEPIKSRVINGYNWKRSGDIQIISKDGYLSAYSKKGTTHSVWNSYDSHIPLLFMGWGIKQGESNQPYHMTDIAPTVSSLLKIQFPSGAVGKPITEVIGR
Change = H75V; value = 1.49 µM
Change = V71G; value = 807 nM
Change = F384V; value = 1.35 µM
Change = M258V; value = 3.02 µM
Change = K452V; value = 1.99 µM
Change = T200G; value = 2.15 µM
Change = V320G; value = 1.5 µM
Change = D260V; value = 2.2 µM

Series 2
Target: CCND2, cyclin fold, Cln2 fusion (human)
Method: yeast growth competition, sequencing
Sample: yeast
Notes: weak parent motif
Reference: not given
Reading: higher = stronger binding
Measurement: normalised enrichment score
Starting sequence: viral docking peptide; TSVRRALFTGGSD
Change = R4G; value = -0.607
Change = A6M; value = -0.344
Change = R5A; value = 0.118
Change = S12E; value = -0.0393
Change = T9M; value = -0.0839
Change = G11T; value = 0.313
Change = T9D; value = 0.0951
Change = A6H; value = 0.17

Series 3
Target: UDP-N-acetylglucosamine--peptide N-acetylglucosaminyltransferase 110 kDa subunit (OGT, Homo sapiens, UniProt O15294)
UniProt O15294, sequence (whole entry, looked up): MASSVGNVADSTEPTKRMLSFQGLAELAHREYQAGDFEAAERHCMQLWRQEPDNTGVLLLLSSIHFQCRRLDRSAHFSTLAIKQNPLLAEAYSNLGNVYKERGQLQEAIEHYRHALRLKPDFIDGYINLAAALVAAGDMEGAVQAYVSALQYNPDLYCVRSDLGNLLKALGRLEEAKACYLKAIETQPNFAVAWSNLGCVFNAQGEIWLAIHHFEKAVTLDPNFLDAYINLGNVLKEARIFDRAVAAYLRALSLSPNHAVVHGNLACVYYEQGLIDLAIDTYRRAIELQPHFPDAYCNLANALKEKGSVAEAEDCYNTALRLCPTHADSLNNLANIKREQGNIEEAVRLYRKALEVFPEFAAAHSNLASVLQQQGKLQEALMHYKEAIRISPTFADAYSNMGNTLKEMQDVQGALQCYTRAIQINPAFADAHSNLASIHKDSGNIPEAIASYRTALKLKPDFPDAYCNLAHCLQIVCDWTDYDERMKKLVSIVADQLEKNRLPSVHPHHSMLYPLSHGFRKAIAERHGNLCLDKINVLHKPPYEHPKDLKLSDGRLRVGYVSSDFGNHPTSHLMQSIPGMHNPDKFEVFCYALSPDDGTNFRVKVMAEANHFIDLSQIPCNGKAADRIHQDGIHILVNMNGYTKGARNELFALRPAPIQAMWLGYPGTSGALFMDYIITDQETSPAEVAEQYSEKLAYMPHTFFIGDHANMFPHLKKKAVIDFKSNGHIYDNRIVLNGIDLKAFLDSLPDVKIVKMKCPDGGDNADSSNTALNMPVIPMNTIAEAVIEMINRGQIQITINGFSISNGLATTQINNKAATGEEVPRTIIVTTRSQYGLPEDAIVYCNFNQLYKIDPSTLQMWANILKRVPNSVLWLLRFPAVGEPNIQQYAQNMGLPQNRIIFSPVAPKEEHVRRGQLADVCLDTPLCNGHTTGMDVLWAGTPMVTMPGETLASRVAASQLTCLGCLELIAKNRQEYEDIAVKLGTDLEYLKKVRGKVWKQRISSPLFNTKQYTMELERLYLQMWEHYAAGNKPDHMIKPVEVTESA
Observed: binding
Method: phage display NGS
Form: peptide
Tested at: concentration not given
Notes: panning round 2
Reference: input library
Measurement: enrichment fold change
Sequence = FSFKPVYEIVLEQK; value = 14.7
Sequence = ESIYKPRYQISIAYA; value = 24.5
Sequence = RYLPIYQILTHTQPF; value = 11.7
Sequence = ADFQLTYKPLYQIVA; value = 7.62
Sequence = TIAQQSRMMNHHSKH; value = 5.08
Sequence = IVGAIFPPKYLITYA; value = 25.5
Sequence = YFGRVTFPPKYQIVF; value = 28.8
Sequence = HQYDIHHHTYTVRVH; value = 5.14

Single results of other studies
SMILES = COC(=O)c1cc(N(C)C(=O)c2ccn3ncc(-c4ccc(C(=O)O)cc4)c3c2)ccc1Cl; target = rat benzodiazepine receptor; assay = binding; measurement = pIC50; value = < 4.52

Excerpt of the above (series 2):
Change = T9D; value = 0.0951
Change = A6H; value = 0.17
